Measured values pooled from the literature.
Every numbered part comes from another study and shows a few of its results, in no order.
Sequence of UniProt Q5XXA6 (whole entry, unmodified, looked up): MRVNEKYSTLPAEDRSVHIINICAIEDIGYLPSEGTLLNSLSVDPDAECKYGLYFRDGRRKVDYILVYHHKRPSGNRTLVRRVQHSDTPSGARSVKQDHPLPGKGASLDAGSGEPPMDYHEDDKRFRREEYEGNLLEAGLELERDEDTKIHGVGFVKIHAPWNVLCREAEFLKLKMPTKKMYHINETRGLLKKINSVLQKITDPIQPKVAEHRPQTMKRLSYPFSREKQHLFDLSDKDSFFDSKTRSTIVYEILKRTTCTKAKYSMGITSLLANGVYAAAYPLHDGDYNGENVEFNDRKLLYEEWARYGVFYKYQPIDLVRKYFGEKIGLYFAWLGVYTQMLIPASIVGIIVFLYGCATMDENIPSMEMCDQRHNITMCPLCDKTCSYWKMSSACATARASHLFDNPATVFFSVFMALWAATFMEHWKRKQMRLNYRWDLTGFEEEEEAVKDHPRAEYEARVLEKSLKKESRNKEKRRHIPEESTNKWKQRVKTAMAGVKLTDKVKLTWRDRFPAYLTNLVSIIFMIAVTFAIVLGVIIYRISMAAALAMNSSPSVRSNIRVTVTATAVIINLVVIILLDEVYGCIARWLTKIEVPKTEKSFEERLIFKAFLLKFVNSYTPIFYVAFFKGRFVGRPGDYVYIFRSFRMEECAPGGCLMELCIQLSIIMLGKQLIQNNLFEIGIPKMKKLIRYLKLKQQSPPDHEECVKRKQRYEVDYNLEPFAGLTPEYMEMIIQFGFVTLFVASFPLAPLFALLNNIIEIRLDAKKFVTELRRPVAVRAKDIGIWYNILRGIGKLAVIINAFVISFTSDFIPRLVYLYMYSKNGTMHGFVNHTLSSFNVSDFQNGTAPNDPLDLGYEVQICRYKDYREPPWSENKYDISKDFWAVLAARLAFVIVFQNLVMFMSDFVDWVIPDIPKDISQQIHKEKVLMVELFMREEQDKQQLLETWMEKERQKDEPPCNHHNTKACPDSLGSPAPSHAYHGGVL
Sequence of UniProt O23661 (whole entry, looked up): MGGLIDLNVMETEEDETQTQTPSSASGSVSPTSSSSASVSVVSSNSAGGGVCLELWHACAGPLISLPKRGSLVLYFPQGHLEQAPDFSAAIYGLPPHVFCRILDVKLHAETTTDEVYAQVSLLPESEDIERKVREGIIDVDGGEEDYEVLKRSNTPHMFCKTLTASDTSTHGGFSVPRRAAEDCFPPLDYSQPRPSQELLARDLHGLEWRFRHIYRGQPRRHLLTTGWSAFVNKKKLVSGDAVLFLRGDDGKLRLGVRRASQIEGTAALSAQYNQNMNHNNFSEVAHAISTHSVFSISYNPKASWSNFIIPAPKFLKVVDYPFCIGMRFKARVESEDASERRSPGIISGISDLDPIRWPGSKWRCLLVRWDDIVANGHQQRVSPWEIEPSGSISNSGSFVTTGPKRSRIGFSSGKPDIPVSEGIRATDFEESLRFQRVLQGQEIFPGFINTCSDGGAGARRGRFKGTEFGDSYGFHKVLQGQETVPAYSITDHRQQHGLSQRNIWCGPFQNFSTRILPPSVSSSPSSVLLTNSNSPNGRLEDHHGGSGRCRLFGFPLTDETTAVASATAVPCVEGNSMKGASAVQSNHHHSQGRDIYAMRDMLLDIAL

Set 1 — method: protein-binding microarray; molecule type: double-stranded DNA, one strand shown; medium: in vitro; concentration: 940 nM top; setting: 60-bp whole probe; together with: salmon DNA 0.4 mg/ml; baseline: random background probes; direction: higher = stronger binding; shared flanks, not repeated: GCCTAGCAC … GTCTTGATTCGCTTGACGCTGCTG
Target: Interferon regulatory factor 5, full length, phosphomimetic (IRF5, Homo sapiens, UniProt Q13568-2, residues 1-514, S451D/S453D/S456D/S462D)
Strand	fitted relative affinity [z-score]
TCATTTTTCTAAGTAAAACTGTGCTAG	0.0642
TTTTTTTTGCAAGCTAAAAAAGTGCTA	-0.328
GACGGTATCCTTCTCCTGAAGTGCTAG	0.268
GACGGTCTCGGTTTCGGGGCGTGCTAG	6.34
TCAAAAATGGCTTTGCAACTGTGCTAG	-0.773
TTAGGTATCCTACGGCTTTAGTGCTAG	-0.269
GACGATATCATTCTCGAGACGTGCTAG	1.02
GACGGACTGGGTTTCGGGTCGTGCTAG	5.49

Set 2 — method: EMSA with sequencing; molecule type: double-stranded DNA, one strand shown; medium: in vitro; concentration: 10 and 20 nM; baseline: negative control set to 0; direction: higher = stronger binding
Target: Hepatocyte nuclear factor 3-alpha (Foxa1, Mus musculus, UniProt P35582, residues 1-468, full length assumed)
Setting: whole designed probe, mean of two concentrations, ends assumed
Construct (chain): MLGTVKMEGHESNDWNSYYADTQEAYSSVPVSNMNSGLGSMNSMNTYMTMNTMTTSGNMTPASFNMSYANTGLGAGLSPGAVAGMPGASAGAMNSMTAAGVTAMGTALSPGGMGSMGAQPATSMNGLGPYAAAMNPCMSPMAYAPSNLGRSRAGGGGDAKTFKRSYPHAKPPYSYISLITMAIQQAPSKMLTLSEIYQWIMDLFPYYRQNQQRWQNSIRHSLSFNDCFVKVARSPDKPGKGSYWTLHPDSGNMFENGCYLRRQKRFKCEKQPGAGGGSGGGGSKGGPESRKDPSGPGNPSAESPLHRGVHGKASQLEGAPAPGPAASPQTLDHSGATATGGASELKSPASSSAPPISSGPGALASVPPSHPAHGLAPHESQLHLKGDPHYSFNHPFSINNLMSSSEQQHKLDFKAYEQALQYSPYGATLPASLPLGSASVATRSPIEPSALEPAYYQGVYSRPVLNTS
Strand	normalised bound fraction [ratio]
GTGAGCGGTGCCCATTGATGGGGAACAAAAGATTTGGTATCGTTTAAAAAAAAAAAAAAGCTGGGTGGGGCCGAGGAGAATCCACCCAAACTTTCCTCAGGAAGTAGGATGTTTACTGAGTAAATATGCGGTAGTCACAGAAAGTCCTGCTACTCCTTTAAGACCTCAGGAGCCACCACCGCCACCTCCTGGCCACATCCGGGCACTTCTCTGCAAACTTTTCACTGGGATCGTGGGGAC	0.357
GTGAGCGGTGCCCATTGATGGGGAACAACACTTCTTCCATTTCCTCAACTCCTAAACATTCATTTATTCATTCTTCATCACACAAAAATCTGAATCTGGCTTCTGCCCCCTACCCTCCTTATTTACTTTCTCAAATAGTATACATTTAGTCATTAAACAAACATACATACATGCATATTTTCAAGATTATCAAGCAATTCCTGTTTCAACTTTTCTTAATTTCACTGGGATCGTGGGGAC	0.508
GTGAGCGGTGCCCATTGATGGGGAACATCTTCCCCCTCTTCCTTGCCCCACCAGTTTACCTTCCCGGGTATATTGGAGATAGGAAATTAATATAAGCCGGCATTCGTTAACCCTCTTCTGGCGCAAACTGCACATTGGTCTGGATGAATCATGGTCCTTTGGCGACGCCAGGCTCCGGGAGAGCAAAGCACCGTGTCAGGGCCATGATCCGGGGTGGCCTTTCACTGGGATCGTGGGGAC	0.0217
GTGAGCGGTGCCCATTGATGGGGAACAAATTGGACACTAGGTGAAAATTCAAGCCTAATCGCTAAAGATTAAGAAAGACGCAATAACCACATTATTGGGGAAAAAAAAGCAAATCTCAGAGTAATCTGGAAGAAATGTTCTTTCTTATTTTTCCCAAAGAACCAGCTCTTTAAAATTGAGTTTTTAGATGATAATTTCATGCTTGGTAATACCCACGTGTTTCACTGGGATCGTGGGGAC	-0.0785
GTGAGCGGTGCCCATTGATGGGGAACGTGTGTGCGCGCGCGTGTGTGTGTGTTTTCTTAAGCCGGGCTATTCAAACCCTGCTGCAATTCTCCGGTAAACAATGTTACATGGGGCATAATGCAAATAAACGGATTGCAACAATGATTCATCGCGCACTTTGCAGCCGGCCCGGTGGAGCAGCCAGTGCCGGATTTCTCCCTTTTTTTGCAGATCTGCAGATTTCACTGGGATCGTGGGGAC	0.411
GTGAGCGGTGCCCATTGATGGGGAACGTGTGTGCGCGCGCGTGTGTGTGTGTTTTCTTAAGCCGGGCTATTCAAACCCTGCTGCAATTCTCCGGTAAACAATGATTCATGGGGCATAATGCAAATAAACGGATTGCAAACGGCGCGGTTCGCGCACTTTGCAGCCGGCCCGGTGGAGCAGCCAGTGCCGGATTTCTCCCTTTTTTTGCAGATCTGCAGATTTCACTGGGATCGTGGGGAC	0.415
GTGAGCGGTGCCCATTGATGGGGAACGCATAAGCATTGCCAAGCCCAGATCTAATGGATAGTCACTTCAAGGCTGCTCTGTGTGGAAGCCTTACTCTTGTTTTTTTCACCTGCCTATCCTGTTGACCTATTTATTTTTATGTGAATGTCATTGTTTTATTCGCTTTAACAATATATTACATTTTGTGTCTGGTAATATAAGTCATTCTTTAATAATCTTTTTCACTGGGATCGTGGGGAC	0.0867
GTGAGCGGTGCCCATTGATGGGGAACATCTTCCCCCTCTTCCTTGCCCCACCAGCTCACCTTCCCGGGTTATTTGCAGATAGGAAAATAAATAAAGCCGGCATTCGTTAACCCTCTTCACGCGCATACTGCTGTTTGCTCTGGATCTAACGATGAATCATGGCGACGCCAGGCTCCGGGAGAGCAAAGCACCGTGTCAGGGCCATGATCCGGGGTGGCCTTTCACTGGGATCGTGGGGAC	0.359

Mixed results
B1: IAA18 (Arabidopsis thaliana, UniProt O24408); chain MEGYSRNGEISPKLLDLMIPQERRNWFHDEKNSVFKTEEKKLELKLGPPGEEDDDESMIRHMKKEPKDKSILSLAGKYFSPSSTKTTSHKRTAPGPVVGWPPVRSFRKNLASGSSSKLGNDSTTSNGVTLKNQKCDAAAKTTEPKRQGGMFVKINMYGVPIGRKVDLSAHNSYEQLSFTVDKLFRGLLAAQRDFPSSIEDEKPITGLLDGNGEYTLTYEDNEGDKMLVGDVPWQMFVSSVKRLRVIKTSEISSALTYGNGKQEKMRR
Molecule	target or system	test	setting	how to read	endpoint	value
B1 (IAA18)	ETT (Arabidopsis thaliana, UniProt O23661)	two-hybrid		baseline: out of 4 tests, higher = firmer interaction	positive tests	0
C=CCc1ccc(O)c(-c2cc(CC=C)ccc2O)c1	Anoctamin-1 (ANO1, Homo sapiens, UniProt Q5XXA6, del476-501/R541I)	chloride current, inhibitor, whole-cell voltage clamp	R515I mutant at -40 mV		IC50	46.3 µM

Excerpt of the above (set 2):
Strand	normalised bound fraction [ratio]
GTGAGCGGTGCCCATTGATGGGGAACGTGTGTGCGCGCGCGTGTGTGTGTGTTTTCTTAAGCCGGGCTATTCAAACCCTGCTGCAATTCTCCGGTAAACAATGATTCATGGGGCATAATGCAAATAAACGGATTGCAAACGGCGCGGTTCGCGCACTTTGCAGCCGGCCCGGTGGAGCAGCCAGTGCCGGATTTCTCCCTTTTTTTGCAGATCTGCAGATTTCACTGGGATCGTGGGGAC	0.415
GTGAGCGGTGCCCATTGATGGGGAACAAATTGGACACTAGGTGAAAATTCAAGCCTAATCGCTAAAGATTAAGAAAGACGCAATAACCACATTATTGGGGAAAAAAAAGCAAATCTCAGAGTAATCTGGAAGAAATGTTCTTTCTTATTTTTCCCAAAGAACCAGCTCTTTAAAATTGAGTTTTTAGATGATAATTTCATGCTTGGTAATACCCACGTGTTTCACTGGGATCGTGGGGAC	-0.0785
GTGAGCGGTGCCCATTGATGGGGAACGCATAAGCATTGCCAAGCCCAGATCTAATGGATAGTCACTTCAAGGCTGCTCTGTGTGGAAGCCTTACTCTTGTTTTTTTCACCTGCCTATCCTGTTGACCTATTTATTTTTATGTGAATGTCATTGTTTTATTCGCTTTAACAATATATTACATTTTGTGTCTGGTAATATAAGTCATTCTTTAATAATCTTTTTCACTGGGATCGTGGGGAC	0.0867
